Experimental data of several laboratories.
Every numbered part comes from another study and shows a few of its results, in no order. Values joined by “and” are separate records of one study, mostly repeats; a detail may differ. ± gives the spread as reported.
UniProt P41143, sequence (whole entry, unmodified, looked up): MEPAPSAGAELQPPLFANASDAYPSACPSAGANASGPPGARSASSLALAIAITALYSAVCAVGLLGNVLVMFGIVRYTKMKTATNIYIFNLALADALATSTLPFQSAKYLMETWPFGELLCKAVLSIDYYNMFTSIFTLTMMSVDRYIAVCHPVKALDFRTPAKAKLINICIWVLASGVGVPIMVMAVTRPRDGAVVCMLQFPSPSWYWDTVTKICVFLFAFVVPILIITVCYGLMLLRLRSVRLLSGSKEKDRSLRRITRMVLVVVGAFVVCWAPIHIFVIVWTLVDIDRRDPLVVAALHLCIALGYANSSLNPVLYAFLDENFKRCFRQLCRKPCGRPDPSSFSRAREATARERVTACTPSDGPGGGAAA

Study 1
SMILES: Cn1cc(-c2cccc(CN3CCC4(CC3)COc3c4ccc4c3CN([C@H]3CCC(=O)NC3=O)C4=O)c2)cn1
| host | matrix | route | dose | notes | AUC(0-inf) |
| --- | --- | --- | --- | --- | --- |
| rat | plasma | intravenous | 1.02 mg/kg |  | 847 ng·h/mL |
| cynomolgus monkey | plasma | oral | 3.02 mg/kg |  | 1570 ng·h/mL |
| rat |  | intravenous | 1 mg/kg | approximate dose | 785 ng·h/mL and 760 ng·h/mL and 997 ng·h/mL |
| rat |  | oral | 3 mg/kg | approximate dose | 3680 ng·h/mL and 2150 ng·h/mL and 2700 ng·h/mL |
| rat | plasma | oral | 2.98 mg/kg | group mean | 2840 ng·h/mL |
| cynomolgus monkey |  | intravenous | 1 mg/kg |  | 812 ng·h/mL and 1170 ng·h/mL and 862 ng·h/mL |

Further values, each from its own experiment
| Compound | target or system | assay | test system | setting | how to read | endpoint | result |
| --- | --- | --- | --- | --- | --- | --- | --- |
| N=C(N)NCCCCCCN1CCC23c4c5ccc(O)c4OC2c2nc4ccccc4cc2CC3(O)C1C5 (stereo not drawn) | Delta-type opioid receptor, with Gi1 (OPRD1, Homo sapiens, UniProt P41143, S135A) | G protein activation, agonist |  |  |  | Emax | 12 ± 7% |
| CC(C)(C)n1nc(-c2ccc(Cl)cc2)c2c(N)ncnc21 | L929 | necroptosis protection, CCK-8 |  | 1.667 µM, with: TNF-α-induced |  | viability | 42.2% |
| O=[N+]([O-])c1ccc(C2=NOC3(NC(c4ccccc4)=NO3)N2c2ccccc2)cc1 (stereo not drawn) | Plasmodium falciparum |  | Dd2 |  | reference: IC50 Dd2 over 3D7 | resistance index | < 5 and 4.2 |
| C=CCN1C(=O)C(O)(C(=O)O)Oc2cc(F)ccc21 (stereo not drawn) | Arabidopsis thaliana | root length | Col-0 | 3.13 µg/mL, 7 days, seed germination, dark |  | inhibition | 14.5% |
| Cc1cc(-c2cnc(N)c3c(-c4ccc5scnc5c4)csc23)n(C)n1 |  | CCK-8 | L929, mouse | 12.5 µM, MEM with 10% FBS, with: zVAD |  | viability | 56.9% and 63.3% and 59.6% and 58% |
| COc1cc(C(=O)OCCCN2CCCN(CCCOC(=O)c3cc(OC)c(OC)c(OCc4ccc([N+](=O)[O-])cc4)c3)CC2)cc(OC)c1OC |  |  | CD-1 mice, male, brain | subcutaneous, 30 mg/kg, 1.5 h |  | concentration | 309 ng/mL |

For quick reference, copied from above (further values, each from its own experiment):
| Compound | target or system | assay | test system | setting | how to read | endpoint | result |
| --- | --- | --- | --- | --- | --- | --- | --- |
| CC(C)(C)n1nc(-c2ccc(Cl)cc2)c2c(N)ncnc21 | L929 | necroptosis protection, CCK-8 |  | 1.667 µM, with: TNF-α-induced |  | viability | 42.2% |
